Measured values collected from several papers.
± gives the spread as reported.

`CN(C)C=Nc1c(C#N)cnn1-c1ccc(F)c(Cl)c1`: ring ingression “no effect” (Drosophila S2 cells; live imaging; 40 µM, added after contractile ring assembly).
For `CC[C@@]1(O)C(=O)OCc2c1cc1n(c2=O)Cc2cc3cc(OC(=O)CCCC(=O)NCC(=O)N[C@@H](Cc4ccccc4)C(=O)N[C@@H](Cc4ccccc4)C(=O)N[C@@H](Cc4ccc(O)cc4)C(=O)NCCS)ccc3nc2-1`, the penetration depth was roughly 50 µm (HepG2 spheroids; confocal microscopy; 100 µM, 6 h).
`CN[C@](C)(C[18F])C(=O)O` gave a tracer uptake of 1.4 %ID/g (A549 tumour model; host not given, muscle; 2 h, tumour-bearing).
For `CNC(=O)c1cc(Oc2ccc(NC(=O)c3cc(-c4cccc(COC(=O)CCC(=O)OC5OC6OC7(C)CCC8C(C)CCC(C5C)C68OO7)c4)ccn3)cc2)ccn1` (stereo not shown), the selectivity ratio was 6.5 (HepG2 and LO2; cell viability, MTT; 72 h; reference: IC50 LO2 over IC50 HepG2).
For `CC[C@@]1(O)C(=O)OCc2c1cc1n(c2=O)Cc2cc3cc(OC(=O)CCCC(=O)NCC(=O)N[C@@H](Cc4ccccc4)C(=O)N[C@@H](Cc4ccccc4)C(=O)N[C@@H](Cc4ccc(OP(=O)(O)O)cc4)C(=O)NCC(=O)N[C@@H](CCC(=O)O)C(=O)N[C@@H](CCCNC(=N)N)C(=O)NCC(=O)N[C@@H](CC(=O)O)C(=O)O)ccc3nc2-1`, the penetration depth was 100 µm (HepG2 spheroids; confocal microscopy; 100 µM, 6 h).
For `CC1(C)CC([n+]2cc([NH-])on2)CC(C)(C)N1O`, “cGMP increase plateau concentration” read 1 mM (primary human trabecular meshwork cells; enzyme immunoassay).
The GI50 of `CCCc1cc2c(c(OC)c1OC)OCO2` is reported as 109 µM (A-375; cell growth or viability, MTT; 72 h).
`C=C1C(=O)O[C@H]2[C@H]1CCC(C)=C1[C@H](OC(=O)c3ccc(C(F)(F)F)cc3)C[C@@](C)(O)[C@@H]12` gave a CC50 of 1.8 µM (M9-ENL1 leukaemia cells; annexin V/7-AAD flow cytometry; 24 h, 5% human plasma).
`CC[C@H](C)[C@H](NC(=O)[C@H](Cc1ccccc1)NC(=O)[C@H](CC(=O)O)NC(=O)[C@H](CCCCN)NC(=O)[C@H](C)NC(=O)[C@H](CCCCN)NC(=O)[C@H](CC(N)=O)NC(=O)[C@H](CC(C)C)NC(=O)[C@H](Cc1c[nH]c2ccccc12)NC(=O)[C@H](CCC(=O)O)NC(=O)[C@H](CCCCN)NC(=O)[C@@H](NC(=O)CN)[C@@H](C)O)C(=O)N[C@@H](CCCCN)C(=O)N[C@@H](CCC(=O)O)C(=O)N[C@@H](CCCCN)C(=O)NCC(=O)N[C@@H](CC(C)C)C(=O)NCC(=O)N[C@@H](CCSC)C(=O)N[C@@H](CC(C)C)C(=O)N[C@@H](CO)C(=O)N[C@@H](C)C(=O)N[C@@H](C)C(=O)N[C@@H](C)C(=O)N[C@@H](CC(N)=O)C(=O)N[C@@H](C)C(=O)N[C@@H](C)C(=O)N[C@@H](CC(C)C)C(=O)N[C@@H](CC(N)=O)C(=O)O` has an EC50 of greater than 100 µM (HEK293 cells; intracellular calcium, FLIPR; 0.1% BSA).
`F[P-](F)(F)(F)(F)F.OCP(CO)CO.OCP(CO)CO.OCP(CO)CO.OCP(CO)CO.[Cu+]` gave a sensitivity ratio of 15 fold (DLD-1; MTT; 72 h; reference: oxaliplatin).
`COC[C@@H](NC(C)=O)C(=O)NCc1ccc(-c2cccc(C(F)(F)F)c2)cc1` — result for “use-dependent Na+ current”: “decreased” (CAD; inhibitor; concentration not given).
`COc1cc(C)c(OC)c(OC)c1OC` gave a GI50 of greater than 250 µM (DU-145; cell growth or viability, MTT; 72 h).
`CC/C=C\C/C=C\C/C=C\C/C=C\C/C=C\C/C=C\CCC(=O)Nc1ccn(C2OC(CO)C(O)C2(F)F)c(=O)n1` (stereo not shown) gave a CC50 of 42.1 µM (SK-MEL-5; NCI60 screen).
Under “adherent cell number”, `N=C(N)NCCC[C@H](N)C(=O)NCC(=O)N[C@@H](CCC(=O)O)C(=O)O` is recorded as 20 ± 5.3 (NIH 3T3 fibroblasts; peptide-functionalised PEG-glass; concentration not given, 4 h, serum-free, per 10× image).
`CN1C(=O)C2(Cc3ccc(CC45SSC(CO)(C(=O)N4C)N(C)C5=O)cc3)SSC1(CO)C(=O)N2C` (racemic) — result for “transcriptome share affected”: 1.4% (MCF7; microarray; 600 nM, ≥2-fold change, together with: deferoxamine).
With `Cc1cc(C)c(-n2ccn(-c3c(C)cc(C)cc3C)c2=[Se])c(C)c1.[Cl][Au]` the IC50 was 0.7 µM (A-375; cell growth or viability, MTT; 72 h).
`CSCC[C@@H](NC(=O)[C@@H](CC(C)C)NC(=O)CNC(=O)[C@@H](Cc1ccccc1)NC(=O)[C@@H](Cc1ccccc1)NC(=O)[C@@H](CCC(N)=O)NC(=O)[C@@H](CCC(N)=O)NC(=O)[C@H]1CCCN1C(=O)[C@@H](CCCCN)NC(=O)[C@H]1CCCN1C(=O)[C@H](N)CCCNC(=N)N)C(N)=O` has an EC25 of 29 ± 4.6 µM (rat peritoneal mast cells; histamine release; 10 min, 37 °C, together with: 2 mM CaCl2).
`CCCc1cc(OC)c2c(c1OC)OCO2` gave a GI50 of greater than 250 µM (DU-145; cell growth or viability, MTT; 72 h).
Under “caspase-3 positive cells”, `C[C@@H](O)[C@@H]1NC(=O)[C@H](CCCCN)NC(=O)CCC(=O)NCCCC[C@@H](C(=O)NCC(=O)NCC(=O)N[C@@H](Cc2ccc(O)cc2)C(=O)NCC(=O)N[C@@H](CCCNC(=N)N)C(=O)N[C@@H](CCCCN)C(=O)N[C@@H](CCCCN)C(=O)N[C@@H](CCCNC(=N)N)C(=O)N[C@@H](CCCNC(=N)N)C(=O)N[C@@H](CCC(N)=O)C(=O)N[C@@H](CCCNC(=N)N)C(=O)N[C@@H](CCCNC(=N)N)C(=O)N[C@@H](CCCNC(=N)N)C(N)=O)NC(=O)[C@H](CCCCN)NC(=O)[C@H](CCC(=O)O)NC(=O)[C@H](CC(=O)O)NC(=O)CNC1=O` is recorded as 2.33% (Huh-7; apoptosis, flow cytometry; 40 µM, 16 h).
`N=C(N)Nc1ccc(-c2nc3ccc(-c4ccc5nc(-c6ccc(NC(=N)N)cc6)[nH]c5c4)cc3[nH]2)cc1` — result for “r(CUG)exp-MBNL1 foci per cell”: 2.7 ± 0.3 (FECD patient corneal endothelial cells; 10 µM).
`C#CCN[C@@H]1C=C[C@]2(O[C@H]([C@@H](CC)C(=O)[C@@H](C)[C@@H](O)[C@H](C)[C@@H]3O[C@@H]([C@@H](CC)C(=O)O)CC[C@@H]3C)[C@@H](C)C[C@H]2C)O[C@@]12CC[C@@](C)([C@H]1CC[C@](O)(CC)[C@H](C)O1)O2` gave a selectivity ratio of 13.4 (HMLER CD24low/CD44high; cell viability, CellTiter-Blue; 72 h; reference: IC50 HMLER CD24high/CD44low over CD24low/CD44high).
`CCN(CC)CCOc1ccc(-c2nnn(Cc3ccc(OC)cc3)c2N)cc1` — result for protein level: “increased” (primary Nf2-deficient mouse tumour cells 184; western blot, refers to: GFAP; concentration not given, 3 days).
For `CCCc1cc(OC)c2c(c1)OCO2`, the GI50 was 100 µM (T47D; cell growth or viability, MTT; 72 h).
`CCC(C)C1OC(=O)C(NC(=O)c2cccc(NC=O)c2O)C(C)OC(=O)C(C(C)CC)OC(=O)C(C)(C)C(O)C(Cc2ccccc2)OC1=O` (stereo not shown) has an IC50 of 0.0051 µM (PC-9; cell growth or viability, CCK-8; 72 h).
`CCC[P+](c1ccccc1)(c1ccccc1)c1ccccc1` gave a GI50 of 1.06 µM (DU-145; cell growth or viability, MTT; 72 h).
For `O=C(O)CCC(NP(=O)(O)OCCC[C@@H](NC(=O)CCC(NC(=O)c1ccc([18F])cc1)C(=O)O)C(=O)O)C(=O)O` (stereo partly shown), the cell uptake was 0.39 ± 0.06% (CWR22Rv1; 1 h).
The cell growth of `CCCC[C@H](NC(=O)[C@H](Cc1ccccc1)NC(=O)[C@H](Cc1c[nH]cn1)NC(=O)CCNC(=O)[C@@H](NC(=O)[C@H](C)NC(=O)[C@H](Cc1c[nH]c2ccccc12)NC(=O)[C@H](CCC(N)=O)NC(=O)[C@H](N)Cc1ccc(O)cc1)C(C)C)C(N)=O` is reported as 138 ± 11% (Balb/3T3-BRS-3; MTT; 10 nM, 16 h).
`CCCc1cc(OC)c(OC)c(OC)c1OC` gave a GI50 of greater than 250 µM (DU-145; cell growth or viability, MTT; 72 h).
For `CCOC(=O)CCCCC[C@@H]1NC(=O)[C@H]2CCCCN2C(=O)[C@H]([C@@H](C)CC)NC(=O)[C@H](Cc2c[nH]c3ccccc23)NC1=O`, “intracellular progranulin level” read roughly 1.4 fold increase (iPSC-derived neural progenitor cells; ELISA; 1 µM, 18 h; reference: vehicle).
For `CC(C)[C@]12O[C@H]1[C@@H]1O[C@]13[C@]1(O[C@H]1C[C@H]1c4c(C(=O)c5ccccc5)oc(OC(=O)c5ccccc5)c4CC[C@@]13C)[C@@H]2O`, the IC50 ratio was 3.1 (MV4-11; cell viability; 24 h; reference: compound over triptolide).
Under “G2/M phase cells”, `CNC(=O)c1cc(Oc2ccc(NC(=O)c3ccc(-c4cccc(COC(=O)CCC(=O)OC5OC6OC7(C)CCC8C(C)CCC(C5C)C68OO7)c4)cn3)cc2)ccn1` (stereo not shown) is recorded as 22% (Huh-7; PI staining, flow cytometry; concentration not given, 24 h).
With `CC[C@@H](C(=O)[C@@H](C)[C@@H](O)[C@H](C)[C@@H]1O[C@@H]([C@@H](CC)C(=O)O)CC[C@@H]1C)[C@H]1O[C@]2(C=C[C@H](NCc3ccc(F)cc3)[C@]3(CC[C@@](C)([C@H]4CC[C@](O)(CC)[C@H](C)O4)O3)O2)[C@H](C)C[C@@H]1C` the selectivity ratio was 10.2 (HMLER CD24low/CD44high; cell viability, CellTiter-Blue; 72 h; reference: IC50 HMLER CD24high/CD44low over CD24low/CD44high).
`[Cl][Ag].[Se]=c1n(C2CCCCC2)ccn1C1CCCCC1` has an IC50 of 3.3 ± 0.8 µM (A2780 ADR; MTT; 72 h).
With `CCCCCCCCCCCCCCCC[P+](c1ccccc1)(c1ccccc1)c1ccccc1` the GI50 was 0.398 µM (T47D; cell growth or viability; 72 h).
`CC(C)CC(O)(CC(C)C)c1cn(C(=O)N2CCCC2)nn1` has an SILAC ratio of 0.93 ± 0.15 (mouse T-cells; protein abundance, unenriched SILAC proteomics, refers to: TFG; 1 nM, 6 h, protein median; reference: DMSO).
For `C=CCc1cc(OC)c(OC)c(OC)c1OC`, the GI50 was greater than 250 µM (DU-145; cell growth or viability, MTT; 72 h).
`C=CCc1ccc(OC(=O)COC(=O)Cn2cnc3c2c(=O)n(C)c(=O)n3C)c(OC)c1` gave a TNF-α reduction of 49% (RAW264.7; ELISA; 10 µM, together with: LPS; reference: LPS alone).

For quick reference, copied from above:
`C=CCc1ccc(OC(=O)COC(=O)Cn2cnc3c2c(=O)n(C)c(=O)n3C)c(OC)c1` gave a TNF-α reduction of 49% (RAW264.7; ELISA; 10 µM, together with: LPS; reference: LPS alone).
For `CNC(=O)c1cc(Oc2ccc(NC(=O)c3cc(-c4cccc(COC(=O)CCC(=O)OC5OC6OC7(C)CCC8C(C)CCC(C5C)C68OO7)c4)ccn3)cc2)ccn1` (stereo not shown), the selectivity ratio was 6.5 (HepG2 and LO2; cell viability, MTT; 72 h; reference: IC50 LO2 over IC50 HepG2).
`COc1cc(C)c(OC)c(OC)c1OC` gave a GI50 of greater than 250 µM (DU-145; cell growth or viability, MTT; 72 h).
`C=C1C(=O)O[C@H]2[C@H]1CCC(C)=C1[C@H](OC(=O)c3ccc(C(F)(F)F)cc3)C[C@@](C)(O)[C@@H]12` gave a CC50 of 1.8 µM (M9-ENL1 leukaemia cells; annexin V/7-AAD flow cytometry; 24 h, 5% human plasma).
